{"data": "Experimental data from different studies", "Oprd1": "Delta-type opioid receptor (Oprd1, Rattus norvegicus, UniProt P33533)", "note": "Each line is one published result; not all experiments were run side by side. Values joined by “and” are separate records of one study, mostly repeats; a detail may differ. Numbers after ± are the reported error.", "chain of UniProt P33533 (whole entry, looked up)": "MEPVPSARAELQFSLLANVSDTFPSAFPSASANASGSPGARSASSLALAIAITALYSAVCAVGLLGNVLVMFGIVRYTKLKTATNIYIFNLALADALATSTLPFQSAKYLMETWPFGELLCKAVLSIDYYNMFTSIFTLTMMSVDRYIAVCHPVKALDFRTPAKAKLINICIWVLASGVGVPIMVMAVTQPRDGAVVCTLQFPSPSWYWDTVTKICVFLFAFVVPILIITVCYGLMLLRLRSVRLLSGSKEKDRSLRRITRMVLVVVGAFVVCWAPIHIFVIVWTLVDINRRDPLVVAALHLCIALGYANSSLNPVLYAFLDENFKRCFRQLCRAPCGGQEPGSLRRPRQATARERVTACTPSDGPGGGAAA", "chain of UniProt Q6PE15 (whole entry, looked up)": "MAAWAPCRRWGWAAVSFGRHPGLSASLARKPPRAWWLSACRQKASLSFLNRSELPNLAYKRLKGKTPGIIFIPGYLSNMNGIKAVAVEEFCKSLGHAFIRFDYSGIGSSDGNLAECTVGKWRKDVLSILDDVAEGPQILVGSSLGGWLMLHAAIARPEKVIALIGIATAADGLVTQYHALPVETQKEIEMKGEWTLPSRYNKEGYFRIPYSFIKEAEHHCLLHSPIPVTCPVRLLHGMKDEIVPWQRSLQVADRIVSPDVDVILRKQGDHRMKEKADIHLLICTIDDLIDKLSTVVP", "chain of UniProt Q00987 (whole entry, looked up)": "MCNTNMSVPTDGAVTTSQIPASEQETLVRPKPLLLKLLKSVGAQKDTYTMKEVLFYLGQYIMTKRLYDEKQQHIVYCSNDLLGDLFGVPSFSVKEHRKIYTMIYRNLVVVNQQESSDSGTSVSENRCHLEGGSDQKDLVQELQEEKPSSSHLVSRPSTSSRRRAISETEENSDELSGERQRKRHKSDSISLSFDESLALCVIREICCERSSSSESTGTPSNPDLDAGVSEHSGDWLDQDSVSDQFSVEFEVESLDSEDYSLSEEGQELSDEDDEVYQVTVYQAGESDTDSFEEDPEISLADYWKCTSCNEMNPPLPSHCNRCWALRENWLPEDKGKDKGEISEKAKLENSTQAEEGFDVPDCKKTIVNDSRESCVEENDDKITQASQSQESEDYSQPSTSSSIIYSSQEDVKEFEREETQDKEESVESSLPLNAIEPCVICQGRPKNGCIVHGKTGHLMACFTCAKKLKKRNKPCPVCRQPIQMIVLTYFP", "chain of UniProt A5GZW8 (whole entry, looked up)": "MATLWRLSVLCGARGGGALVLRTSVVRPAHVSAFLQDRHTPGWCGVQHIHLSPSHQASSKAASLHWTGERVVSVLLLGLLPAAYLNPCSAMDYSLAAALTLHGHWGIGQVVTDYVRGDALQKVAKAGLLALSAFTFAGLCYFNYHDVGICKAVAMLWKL", "chain of UniProt Q9UH17 (whole entry, looked up)": "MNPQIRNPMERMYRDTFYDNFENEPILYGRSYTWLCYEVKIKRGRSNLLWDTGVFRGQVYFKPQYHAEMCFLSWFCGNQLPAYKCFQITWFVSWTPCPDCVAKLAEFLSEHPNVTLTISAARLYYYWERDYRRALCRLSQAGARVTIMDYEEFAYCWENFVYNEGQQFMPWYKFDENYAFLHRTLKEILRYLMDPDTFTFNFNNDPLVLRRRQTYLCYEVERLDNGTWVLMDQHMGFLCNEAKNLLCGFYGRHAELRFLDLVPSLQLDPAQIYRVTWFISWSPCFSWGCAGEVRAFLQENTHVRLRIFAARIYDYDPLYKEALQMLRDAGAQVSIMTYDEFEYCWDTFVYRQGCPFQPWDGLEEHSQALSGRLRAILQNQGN", "chain of UniProt D0VWV4 (whole entry, looked up)": "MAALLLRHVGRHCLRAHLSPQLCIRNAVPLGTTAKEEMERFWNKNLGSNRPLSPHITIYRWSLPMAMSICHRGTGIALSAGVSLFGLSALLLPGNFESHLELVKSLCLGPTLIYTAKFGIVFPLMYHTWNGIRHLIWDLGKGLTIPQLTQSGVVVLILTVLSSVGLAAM", "chain of UniProt P24723 (whole entry, looked up)": "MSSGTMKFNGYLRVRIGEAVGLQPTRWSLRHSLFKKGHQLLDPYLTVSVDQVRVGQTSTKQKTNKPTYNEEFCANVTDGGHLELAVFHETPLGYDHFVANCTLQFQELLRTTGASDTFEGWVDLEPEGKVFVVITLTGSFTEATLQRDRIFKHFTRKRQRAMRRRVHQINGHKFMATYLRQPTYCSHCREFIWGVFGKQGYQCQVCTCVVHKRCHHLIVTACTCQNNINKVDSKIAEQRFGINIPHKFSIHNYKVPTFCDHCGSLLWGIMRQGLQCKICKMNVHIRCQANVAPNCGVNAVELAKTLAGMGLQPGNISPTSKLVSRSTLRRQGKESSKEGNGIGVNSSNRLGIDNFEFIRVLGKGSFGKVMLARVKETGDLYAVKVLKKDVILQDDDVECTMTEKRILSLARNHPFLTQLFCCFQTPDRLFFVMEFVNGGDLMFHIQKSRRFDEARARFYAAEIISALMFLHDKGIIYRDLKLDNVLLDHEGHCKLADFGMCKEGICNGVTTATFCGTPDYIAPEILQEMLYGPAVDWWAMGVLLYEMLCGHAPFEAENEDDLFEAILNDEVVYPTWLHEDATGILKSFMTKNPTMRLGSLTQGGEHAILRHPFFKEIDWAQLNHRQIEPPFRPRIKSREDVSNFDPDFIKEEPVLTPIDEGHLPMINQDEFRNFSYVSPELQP", "chain of UniProt Q007T0 (whole entry, looked up)": "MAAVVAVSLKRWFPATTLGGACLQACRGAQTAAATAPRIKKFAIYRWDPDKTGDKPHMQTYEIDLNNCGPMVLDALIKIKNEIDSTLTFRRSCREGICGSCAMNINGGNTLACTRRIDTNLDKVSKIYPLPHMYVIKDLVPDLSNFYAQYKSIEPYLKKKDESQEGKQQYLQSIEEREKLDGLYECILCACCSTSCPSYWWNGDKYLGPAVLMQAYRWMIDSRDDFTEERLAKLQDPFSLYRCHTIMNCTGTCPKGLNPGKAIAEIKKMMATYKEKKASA", "chain of UniProt Q15303 (whole entry, looked up)": "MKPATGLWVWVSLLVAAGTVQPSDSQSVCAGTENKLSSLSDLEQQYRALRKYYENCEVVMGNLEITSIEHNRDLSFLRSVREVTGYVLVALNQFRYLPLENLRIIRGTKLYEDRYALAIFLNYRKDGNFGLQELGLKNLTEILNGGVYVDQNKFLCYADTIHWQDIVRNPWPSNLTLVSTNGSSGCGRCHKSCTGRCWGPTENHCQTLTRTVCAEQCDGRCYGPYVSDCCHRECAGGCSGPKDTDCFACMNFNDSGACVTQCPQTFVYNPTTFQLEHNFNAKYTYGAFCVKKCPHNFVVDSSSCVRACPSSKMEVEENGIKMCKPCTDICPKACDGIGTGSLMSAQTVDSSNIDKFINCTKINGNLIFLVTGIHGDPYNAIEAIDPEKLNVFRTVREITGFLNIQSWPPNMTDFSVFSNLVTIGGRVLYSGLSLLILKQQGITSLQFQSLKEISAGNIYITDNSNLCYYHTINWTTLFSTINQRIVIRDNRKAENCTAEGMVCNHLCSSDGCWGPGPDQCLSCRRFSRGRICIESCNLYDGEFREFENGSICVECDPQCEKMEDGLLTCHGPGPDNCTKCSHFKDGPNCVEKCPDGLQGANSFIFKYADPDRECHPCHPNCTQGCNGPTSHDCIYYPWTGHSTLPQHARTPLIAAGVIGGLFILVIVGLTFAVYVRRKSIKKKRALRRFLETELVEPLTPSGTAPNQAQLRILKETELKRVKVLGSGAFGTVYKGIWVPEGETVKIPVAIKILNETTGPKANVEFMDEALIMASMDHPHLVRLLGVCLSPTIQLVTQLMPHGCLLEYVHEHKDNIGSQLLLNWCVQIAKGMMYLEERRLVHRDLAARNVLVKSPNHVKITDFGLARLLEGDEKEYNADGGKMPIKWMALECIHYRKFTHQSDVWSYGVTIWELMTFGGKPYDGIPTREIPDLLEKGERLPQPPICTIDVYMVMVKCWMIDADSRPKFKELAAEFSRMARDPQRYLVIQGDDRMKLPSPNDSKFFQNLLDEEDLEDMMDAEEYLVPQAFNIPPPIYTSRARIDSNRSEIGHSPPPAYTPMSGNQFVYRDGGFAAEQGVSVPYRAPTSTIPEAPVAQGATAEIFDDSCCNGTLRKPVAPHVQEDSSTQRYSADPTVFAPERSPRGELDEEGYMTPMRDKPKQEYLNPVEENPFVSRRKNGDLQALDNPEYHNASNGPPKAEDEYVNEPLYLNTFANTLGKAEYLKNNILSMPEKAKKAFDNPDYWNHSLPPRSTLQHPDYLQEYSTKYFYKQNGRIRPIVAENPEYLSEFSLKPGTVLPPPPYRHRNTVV", "chain of UniProt P20273 (whole entry, unmodified, looked up)": "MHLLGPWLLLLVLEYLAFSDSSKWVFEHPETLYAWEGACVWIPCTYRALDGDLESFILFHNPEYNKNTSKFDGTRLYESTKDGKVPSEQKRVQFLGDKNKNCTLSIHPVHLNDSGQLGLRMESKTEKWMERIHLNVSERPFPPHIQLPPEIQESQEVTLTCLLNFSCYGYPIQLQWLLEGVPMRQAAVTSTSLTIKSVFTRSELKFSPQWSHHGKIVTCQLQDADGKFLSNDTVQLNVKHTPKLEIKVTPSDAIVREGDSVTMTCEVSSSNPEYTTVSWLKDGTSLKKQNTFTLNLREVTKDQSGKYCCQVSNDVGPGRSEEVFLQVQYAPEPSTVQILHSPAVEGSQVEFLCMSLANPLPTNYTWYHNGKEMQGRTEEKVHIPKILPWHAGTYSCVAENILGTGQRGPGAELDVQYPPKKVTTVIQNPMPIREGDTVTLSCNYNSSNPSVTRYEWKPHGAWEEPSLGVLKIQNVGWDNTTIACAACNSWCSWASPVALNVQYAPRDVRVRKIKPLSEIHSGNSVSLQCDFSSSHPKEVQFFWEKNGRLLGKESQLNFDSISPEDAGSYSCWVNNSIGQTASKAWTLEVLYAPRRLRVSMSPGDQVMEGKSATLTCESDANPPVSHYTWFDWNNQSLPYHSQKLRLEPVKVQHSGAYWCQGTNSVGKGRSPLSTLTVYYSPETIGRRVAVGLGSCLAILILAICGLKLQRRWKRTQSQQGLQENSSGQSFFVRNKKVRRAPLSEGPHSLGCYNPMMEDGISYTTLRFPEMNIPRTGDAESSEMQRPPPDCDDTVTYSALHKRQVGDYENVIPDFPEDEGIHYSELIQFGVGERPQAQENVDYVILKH"}
{"Compound": "N[C@@H](Cc1ccccc1)P(=O)(O)O", "target or system": "PAL1 (Petroselinum crispum, UniProt P24481, Y110F)", "test": "binding, ITC", "quantity": "ΔG", "result": "-7 kcal/mol"}
{"Compound": "C#CCCCCOc1ccc2c(c1)CCCN2C(=O)CCl", "target or system": "HELLS (Homo sapiens, UniProt Q9NRZ9)", "test": "MS-ABPP alkyne probe", "system": "H460 cell lysate", "how to read": "relative to: high over low probe", "quantity": "cysteine reactivity ratio", "result": 1.49}
{"Compound": "CC[C@H](C)[C@@H]1NC(=O)[C@H](CC(N)=O)NC(=O)[C@@H]2CCCN2C(=O)[C@@H](NC(=O)[C@H](CC(N)=O)NC(=O)CNCCC(N)=O)COC(=O)[C@H](CCSC)NC(=O)[C@H](Cc2c[nH]c3ccccc23)NC(=O)[C@H](CCC(N)=O)NC(=O)CNC(=O)[C@H](Cc2ccccc2)NC1=O", "target or system": "Fsr quorum sensing protein (Enterococcus faecalis, UniProt A0ACD6TCR9)", "test": "reporter gene, agonist", "how to read": "relative to: compound over native peptide", "quantity": "potency ratio", "result": "~2 fold"}
{"Compound": "O=C1NC(=O)c2c1c1cc(F)c[n+]3c1c1c2c2cc(O)ccc2[n]1[Ru-4]312([N]=C=S)[S+]3CC[S+]1CC[S+]2CC3 (stereo not drawn)", "target or system": "FES (Homo sapiens, UniProt P07332)", "test": "enzyme activity", "conditions": "100 nM, human enzyme, added: 10 µM ATP", "how to read": "relative to: untreated", "quantity": "remaining activity", "result": "69%"}
{"Compound": "C[C@@H]1NC(=O)[C@H](CCCNC(=N)N)NC(=O)[C@H](Cc2ccc3ccccc3c2)NC(=O)[C@H]2CCCCN2C(=O)[C@@H]([C@H](C)O)NC(=O)[C@H](Cc2ccc(F)cc2)NC(=O)[C@@H](Cc2ccc(F)cc2)NC(=O)c2cc3cc(c2)C(=O)NC[C@H](NC(=O)[C@@H](Cc2ccccc2)NC1=O)C(=O)N[C@@H](Cc1ccccc1)C(=O)N[C@@H](Cc1ccc2ccccc2c1)C(=O)N[C@@H](CCCNC(=N)N)C(=O)N[C@@H](CCCNC(=N)N)C(=O)N[C@@H](CCCNC(=N)N)C(=O)N[C@@H](CCCNC(=N)N)C(=O)N[C@H](C(=O)N[C@@H](CCCCN)C(N)=O)CNC3=O", "target or system": "PPIA (Homo sapiens, UniProt P62937)", "test": "inhibitor", "conditions": "up to 5 µM, added: Suc-Ala-Glu-Pro-Phe-pNA", "quantity": "isomerase activity", "result": "no effect"}
{"Compound": "CON(C(=O)c1cn(C)nc1C(F)F)C(C)Cc1c(Cl)cc(Cl)cc1Cl (stereo not drawn)", "target or system": "SDHD/SDHC/SDHB (Sus scrofa, UniProt A5GZW8+D0VWV4+Q007T0)", "test": "enzyme activity, inhibitor, DCIP reduction", "system": "pig", "conditions": "1 µM, added: DCIP 10 µM", "quantity": "reaction velocity", "result": "0.00127 µM/s and 0.00107 µM/s"}
{"Compound": "COc1c(N2CC3CCCNC3C2)c(F)cc2c(=O)c(C(=O)OCc3ccc([N+](=O)[O-])o3)cn(C3CC3)c12 (stereo not drawn)", "target or system": "nfsB (Escherichia coli K-12, UniProt P38489)", "test": "substrate", "conditions": "added: NADH 100 µM", "quantity": "kcat", "result": "0.61 s⁻¹"}
{"Compound": "CCCC[C@H]1CNCCN1C[C@@H]1CCCN1C[C@H](CC1CCCCC1)N1CCN(CCc2ccc(Cl)c(Cl)c2)[C@H]([C@H](C)CC)C1", "target or system": "Oprd1", "test": "radioligand binding", "system": "rat brain membranes", "conditions": "500 nM, pH 7.5, 25 °C, added: 2 nM [3H]DPDPE", "quantity": "remaining binding", "result": "94.5%"}
{"Compound": "O=C1NC2(CC2)COc2ncc(F)cc2[C@H]2COCCN2c2ccn3ncc1c3n2", "system": "Sprague-Dawley rat, female, brain", "conditions": "oral, 10 mg/kg/day, 4 weeks, end of treatment", "quantity": "organ-to-body weight ratio", "result": "0.591 ± 0.082%"}
{"Compound": "CC(C)CC(O)(CC(C)C)c1cn(C(=O)N2CCCC2)nn1", "target or system": "Triacylglycerol hydrolase DDHD2 (Ddhd2, Mus musculus, UniProt Q80Y98)", "test": "probe labelling, inhibitor, measured: Ddhd2", "system": "mouse, brain", "conditions": "i.p., 0.8 mg/kg, 4 h, protein level", "how to read": "relative to: treated over vehicle mice, lower = stronger inhibition", "quantity": "activity ratio-of-ratios", "result": 1.48}
{"Compound": "CS(C)(=O)=Nc1ccc(-c2ccc(-c3nc4cc(O[C@@H]5CO[C@H]6[C@@H]5OC[C@H]6O)[nH]c4cc3F)cc2)cc1", "target or system": "ERBB4 (Homo sapiens, UniProt Q15303)", "test": "enzyme activity, inhibitor", "conditions": "10 µM", "quantity": "inhibition", "result": "3%"}
{"Compound": "[CH3][Ti+2][O]C(=O)c1ccc([S][Au][PH](c2ccccc2)(c2ccccc2)c2ccccc2)cc1.c1cc[cH-]c1.c1cc[cH-]c1", "target or system": "PRKCH (Homo sapiens, UniProt P24723)", "test": "kinase activity", "conditions": "1 µM, added: ATP 10 µM", "quantity": "remaining activity", "result": "95.8%"}
{"Compound": "COCC1CCCCN1C(=O)n1cc(C(O)(c2ccccc2)c2ccccc2)nn1 (stereo not drawn)", "target or system": "Palmitoyl-protein thioesterase ABHD10, mitochondrial (Mus musculus, UniProt Q6PE15)", "test": "probe labelling, inhibitor, competitive ABPP-SILAC, measured: Abhd10", "system": "mouse T cells", "conditions": "concentration not given, 4 h, single peptide", "how to read": "relative to: treated over DMSO cells, lower = stronger inhibition", "quantity": "SILAC activity ratio", "result": "1.22 and 1.23 and 1.48 and 1.46 and 1.35 and 1.25"}
{"Compound": "CCCc1cc2cc(-n3cc(C)c4c3CC(C)(C)CC4=O)cc(N3CCC(O)CC3)c2c(=O)[nH]1", "target or system": "HSP90AB1 (Homo sapiens, UniProt P08238)", "test": "fluorescence polarization", "how to read": "relative to: apparent KD Hsp90α over apparent KD HSP90AB1", "quantity": "selectivity ratio", "result": "> 174 fold"}
{"Compound": "CN(C)[C@H]1C[C@@]23CC[C@@]4(O2)C(=CC[C@]2(C)[C@@H](c5ccc6ccncc6c5)CC[C@H]24)C=C3[C@@H](O)[C@@H]1O", "target or system": "EPHB4 (Homo sapiens, UniProt P54760)", "test": "ATP probe labelling, inhibitor, KiNativ profiling", "conditions": "0.1 µM", "quantity": "inhibition", "result": "-7.7%"}
{"Compound": "CCOC(=O)[C@@H]1Cc2c(cc([N+](=O)[O-])cc2[N+](=O)[O-])[C@H](O)[C@]12C(=O)Nc1ccc(Br)cc12", "target or system": "ALK (Homo sapiens, UniProt Q9UM73)", "test": "binding, competition with immobilised ligand", "conditions": "0.1 µM", "quantity": "remaining binding", "result": "55%"}
{"Compound": "CN(C)CCCSC(=S)N1CCN(C(=O)/C=C/c2coc3ccccc3c2=O)CC1", "target or system": "Nucleoprotein (N, Tomato spotted wilt virus, UniProt P25999, R94A/Y184A)", "test": "binding, microscale thermophoresis", "conditions": "1.953 µM", "how to read": "dose series", "quantity": "MST response", "result": "0.683 a.u."}
{"Compound": "CC[C@@H](C)[C@@H]1CN([C@@H](CC2CCCCC2)CN2CCC[C@H]2CN2CCNC[C@@H]2Cc2ccc3ccccc3c2)CCN1CCCC1CCCC1", "target or system": "Oprd1", "test": "radioligand binding", "system": "rat brain membranes", "conditions": "500 nM, pH 7.5, 25 °C, added: 2 nM [3H]DPDPE", "quantity": "remaining binding", "result": "97.3%"}
{"Compound": "C=C(c1ccccc1)[C@@H](N)P(=O)(O)O", "target or system": "PAL1 (Petroselinum crispum, UniProt P24481)", "test": "L-Phe deamination, inhibitor, UV steady-state kinetics", "conditions": "50 µM, added: L-Phe 1 mM", "quantity": "reaction rate reduction", "result": "2%"}
{"Compound": "N[C@H](C(=O)N1CCCC1)C1CCN(c2nccc3c(-c4ncc(Cl)cc4Cl)cccc23)CC1", "target or system": "CRHR1 (Homo sapiens, UniProt P34998)", "test": "functional response, agonist", "conditions": "10 µM", "quantity": "response", "result": "5%"}
{"Compound": "CC(C)[C@H]1NC(=O)C[C@H]2/C=C/CCSSC[C@@H](NC1=O)C(=O)N[C@H](Cc1cccc3ccccc13)C(=O)NCC(=O)O2", "target or system": "PIM3 (Homo sapiens, UniProt Q86V86)", "test": "enzyme activity, inhibitor", "conditions": "10 µM", "quantity": "inhibition", "result": "2.5%"}
{"Compound": "CC[C@H](C)[C@@H]1NC(=O)[C@H](CC(C)C)NC(=O)CNC(=O)[C@H](CCCNC(=N)N)NC(=O)[C@H](Cc2c[nH]c3ccccc23)NC(=O)[C@H](CCSC)NC(=O)[C@H](CO)NC(=O)[C@H](CCC(=O)O)NC(=O)[C@H](Cc2ccccc2)NC(=O)[C@H](CC(=O)O)NC(=O)[C@H]([C@@H](C)O)NC(=O)CNC(=O)[C@H](CCC(=O)O)NC(=O)[C@H]([C@@H](C)O)NC(=O)CNC(=O)[C@H](CC(=O)O)NC1=O", "target or system": "MDM2 (Homo sapiens, UniProt Q00987)", "test": "MDM2-ligand binding, inhibitor, AlphaLISA competition", "conditions": "50 µM, added: GST-tagged MDM2 ligand", "how to read": "lower = stronger inhibition", "quantity": "AlphaLISA signal", "result": "1180 a.u. and 1060 a.u. and 1140 a.u."}
{"Compound": "CCn1nc(Cl)c2c1-c1cnc(N)c(c1)O[C@H](C)c1cc(F)ccc1-c1nn(C)cc1C2", "target or system": "EPHA7 (Homo sapiens, UniProt Q15375)", "test": "kinase activity, inhibitor", "how to read": "relative to: IC50 EPHA7 over IC50 ALK", "quantity": "selectivity ratio", "result": "167 fold"}
{"Compound": "CCCC[C@H]1CNCCN1C[C@@H]1CCCN1C[C@@H](Cc1ccc2ccccc2c1)N1CCN(CCc2ccc(Cl)c(Cl)c2)[C@H]([C@@H](C)O)C1", "target or system": "Oprd1", "test": "radioligand binding", "system": "rat brain membranes", "conditions": "500 nM, pH 7.5, 25 °C, added: 2 nM [3H]DPDPE", "quantity": "remaining binding", "result": "85.8%"}
{"Compound": "C=CC(=O)Nc1cc(-c2ccc(C(=O)N3CCCC(O)(CC)C3)cc2)ccc1F (stereo not drawn)", "target or system": "DNA dC->dU-editing enzyme APOBEC-3B, C-terminal domain (Homo sapiens, UniProt Q9UH17)", "test": "covalent adduct, intact protein MS", "conditions": "125 µM, 3 h, 5-fold molar excess", "quantity": "unmodified protein", "result": "65% and 63%"}
{"Compound": "CC(=O)N[C@H](C(=O)N[C@@H](CCCNC(=N)N)C(=O)NCC(=O)N[C@@H](CO)C(=O)N[C@@H](CS)C(=O)N[C@@H](CCCNC(=N)N)C(=O)N[C@@H](CCCCN)C(=O)N[C@@H](CCCNC(=N)N)C(=O)N[C@@H](CC(N)=O)C(=O)N[C@@H](CCCNC(=N)N)C(=O)N[C@@H](CO)C(=O)N1CCC[C@H]1C(=O)N[C@@H](CCC(=O)O)C(=O)N[C@@H](CCCNC(=N)N)C(N)=O)[C@@H](C)O", "target or system": "WDR5 (Homo sapiens, UniProt P61964)", "test": "binding, competitor of LANA peptide, ITC", "conditions": "pH 7.0, 20 °C, WIN motif peptide", "quantity": "ΔH", "result": "-3.64 kcal/mol"}
{"Compound": "CC(C)C[C@H](NC(=O)[C@H]1O[C@@H]1C(=O)O)C(=O)NCCCCN=C(N)N", "target or system": "Cathepsin K (CTSK, Homo sapiens, UniProt P43235)", "quantity": "Hill slope", "result": -1.54}
{"Compound": "Cc1ncc([N+](=O)[O-])n1CC(O)Cn1cc(CO[C@]2(C(=O)O)C[C@H](O)[C@@H](NC(=O)CF)[C@H]([C@H](O)[C@H](O)CNC(=O)c3ccc(Oc4ccccc4)cc3)O2)nn1 (stereo partly drawn)", "target or system": "CD22 (Homo sapiens, UniProt P20273)", "test": "isothermal titration calorimetry", "quantity": "ΔH", "result": "-10.2 ± 0.02 kcal/mol"}
{"Compound": "CCO[C@H]1[C@H](O)[C@@H](N)[C@@H](O[C@H]2[C@H](O[C@@H]3O[C@H](CO)[C@@H](O[C@H]4O[C@@H](CN)[C@@H](O)[C@H](O)[C@H]4N)[C@H]3O)[C@@H](O)[C@H](N)C[C@@H]2N)O[C@@H]1CO", "target or system": "SLC6A4 (Homo sapiens, UniProt P31645)", "test": "radioligand binding", "conditions": "10 µM, 1% DMSO", "quantity": "specific binding", "result": "-1%"}
{"Compound": "C=CC(=O)NC[C@H](NC(=O)[C@H](CC1CCCCC1)NC(=O)[C@H](CCC(N)=O)NC(C)=O)C(=O)N[C@@H](CC(C)C)C(=O)N[C@@H](Cc1ccccc1)C(=O)O", "target or system": "Beta sliding clamp (Escherichia coli, UniProt P0A988)", "test": "binding, isothermal titration calorimetry", "conditions": "25 °C", "quantity": "ΔH", "result": "-12.8 kcal/mol"}
